Measured values pooled from the literature.
Parts stem from different laboratories: compare values within a part only. Positions count from the first letter of the parent shown.

Study 1
Target: Protein C-ets-1 (ETS1, Homo sapiens, UniProt P14921, residues 1-441, Y397A, full length assumed)
Method: protein-binding microarray
Form: double-stranded DNA, one strand shown
Medium: in vitro
Tested at: not given
Notes: k-mer, scored over probes, only values ≥0.25
Direction: higher = stronger binding
Measurement: E-score
Construct (chain): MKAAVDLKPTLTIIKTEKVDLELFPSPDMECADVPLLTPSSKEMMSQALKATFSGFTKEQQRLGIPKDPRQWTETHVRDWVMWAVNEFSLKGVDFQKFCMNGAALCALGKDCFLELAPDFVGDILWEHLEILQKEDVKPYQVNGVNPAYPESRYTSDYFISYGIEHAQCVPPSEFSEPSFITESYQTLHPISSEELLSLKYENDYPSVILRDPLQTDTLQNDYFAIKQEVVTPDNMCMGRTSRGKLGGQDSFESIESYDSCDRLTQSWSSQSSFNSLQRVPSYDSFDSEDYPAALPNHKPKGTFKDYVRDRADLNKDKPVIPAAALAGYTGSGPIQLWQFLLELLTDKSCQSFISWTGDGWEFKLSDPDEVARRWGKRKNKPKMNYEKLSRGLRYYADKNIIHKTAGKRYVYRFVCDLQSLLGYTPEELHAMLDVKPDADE
Sequence = CCGCAACA; value = 0.26
Sequence = ACAAAGCA; value = 0.288
Sequence = CCCACCCG; value = 0.308
Sequence = TACGACAA; value = 0.351
Sequence = CAAATTTG; value = 0.333
Sequence = CCCGCCAC; value = 0.267
Sequence = CTTCCGGA; value = 0.413
Sequence = GCGCGCGC; value = 0.323
Sequence = GTTTCCGA; value = 0.327
Sequence = CTGACAAA; value = 0.394
Sequence = CCGGAAGC; value = 0.466
Sequence = ACATACAC; value = 0.271
Sequence = GTGTCATA; value = 0.314
Sequence = ATCCGGTG; value = 0.267
Sequence = GTGATCAC; value = 0.262
Sequence = ATCGACAA; value = 0.336
Sequence = ACGGGATA; value = 0.289
Sequence = ACAAATTG; value = 0.285
Sequence = ACGGGGCG; value = 0.262
Sequence = GCGGCAAA; value = 0.325
Sequence = ATGTCACG; value = 0.258
Sequence = GAACGACA; value = 0.29
Sequence = GGTTACAA; value = 0.292
Sequence = ACAACGGA; value = 0.263
Sequence = ACAACAGC; value = 0.258

Study 2
Target: ABI1, truncated, D143A, DHFR fusion (Arabidopsis thaliana, UniProt P49597)
Method: DHFR PCA, dose-response
Medium: yeast
Notes: Hill fit, mean, not affinity
Together with: (+)-ABA, dose series
Direction: lower = more sensitive
Measurement: ABA EC50
Parent: PYL1, truncated, DHFR fusion (Arabidopsis thaliana, UniProt Q8VZS8); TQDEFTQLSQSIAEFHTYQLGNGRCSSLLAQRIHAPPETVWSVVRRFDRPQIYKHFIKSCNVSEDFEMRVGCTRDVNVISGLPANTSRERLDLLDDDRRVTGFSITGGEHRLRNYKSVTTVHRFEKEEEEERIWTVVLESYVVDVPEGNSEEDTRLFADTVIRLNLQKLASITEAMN
Substitution = T86N; value = 0.422 µM
Substitution = T160Q; value = 30.7 µM
Substitution = T17N; value = 11.9 µM
Substitution = I133H; value = 2.1 µM
Substitution = S140G; value = 344 µM
Substitution = E109P; value = 124 µM
Substitution = N77A; value = 2.07 µM
Substitution = Q51L; value = 160 µM
Substitution = I52L; value = 4.92 µM
Substitution = E151K; value = 3.32 µM
Substitution = N77W; value = 4.03 µM
Substitution = I12M; value = 15.5 µM
Substitution = E139C; value = 2.44 µM
Substitution = P146F; value = 428 µM
Substitution = K126V; value = 1.43 µM
Substitution = S150D; value = 5.38 µM
Substitution = K168I; value = 22.7 µM

Study 3
Target: Histone acetyltransferase KAT6A, winged helix 1, GST fusion (KAT6A, Homo sapiens, UniProt Q92794, residues 1-85)
Method: protein binding microarray
Form: double-stranded DNA, one strand shown
Medium: in vitro
Tested at: not given
Notes: 8-mer, flanks averaged, mean of 2 arrays, mostly near background
Relative to: not given
Direction: higher = stronger binding
Measurement: E-score
Residues (chain): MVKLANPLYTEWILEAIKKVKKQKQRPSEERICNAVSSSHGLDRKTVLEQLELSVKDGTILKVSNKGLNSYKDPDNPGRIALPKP
Sequence = CTAAATAG; value = -0.135
Sequence = GACATGGA; value = -0.185
Sequence = GGTTTGCA; value = 0.0234
Sequence = ACCGATAG; value = 0.0511
Sequence = GAACGCGC; value = 0.405
Sequence = ACAACCGC; value = 0.214
Sequence = TGAGACAA; value = -0.172
Sequence = TAACTGGA; value = -0.183
Sequence = ATGTGTTC; value = -0.12
Sequence = CCTAAACC; value = -0.217
Sequence = ATGCCTTG; value = -0.203
Sequence = CGGACCCA; value = 0.135
Sequence = AGGCGACC; value = -0.0314
Sequence = GAATACGA; value = -0.0893
Sequence = CTAAGAAA; value = -0.0902
Sequence = CAATTTAC; value = -0.147
Sequence = ACGATACA; value = -0.267
Sequence = ACTTCCAA; value = -0.255
Sequence = CCGGCAGA; value = 0.114
Sequence = CCTGTTGA; value = -0.224
Sequence = AACGAACC; value = -0.0187
Sequence = AATGCCAC; value = -0.166
Sequence = AGGAATCA; value = -0.0914
Sequence = AAATATTT; value = -0.105

Study 4
Target: Interferon regulatory factor 7, full length, phosphomimetic (IRF7, Homo sapiens, UniProt Q92985, residues 1-503, S101K/S471D/S472D/S475D/S476D/S477D/S483D/S484D/S487D)
Method: protein-binding microarray
Form: double-stranded DNA, one strand shown
Medium: in vitro
Tested at: 250 nM
Notes: 60-bp whole probe
Together with: salmon DNA 0.4 mg/ml
Relative to: random background probes
Direction: higher = stronger binding
Measurement: log fluorescence
Constant ends, left off below: GCCTAGCAC … GTCTTGATTCGCTTGACGCTGCTG
Construct (chain): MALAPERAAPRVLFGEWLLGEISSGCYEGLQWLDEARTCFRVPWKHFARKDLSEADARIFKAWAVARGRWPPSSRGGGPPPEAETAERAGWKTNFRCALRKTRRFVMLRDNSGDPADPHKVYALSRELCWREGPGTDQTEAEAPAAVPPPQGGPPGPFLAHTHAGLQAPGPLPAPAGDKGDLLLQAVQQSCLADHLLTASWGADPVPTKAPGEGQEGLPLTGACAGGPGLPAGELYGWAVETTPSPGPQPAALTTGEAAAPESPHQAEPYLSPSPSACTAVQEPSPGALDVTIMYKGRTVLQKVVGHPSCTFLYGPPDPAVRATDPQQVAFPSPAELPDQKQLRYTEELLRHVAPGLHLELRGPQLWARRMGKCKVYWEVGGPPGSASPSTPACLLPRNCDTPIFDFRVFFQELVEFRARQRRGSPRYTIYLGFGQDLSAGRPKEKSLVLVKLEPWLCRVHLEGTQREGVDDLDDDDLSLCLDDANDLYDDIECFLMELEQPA
Sequence = GACGGTATCGAATATCGGGACGTGCTA; value = -0.0889 z-score
Sequence = TCCCCTTCTACTCTCCTGCAGTGCTAG; value = 1.03 z-score
Sequence = GACGATATCGGTATCGAGACGTGCTAG; value = 0.205 z-score
Sequence = GACGGCTCCGGTTTCGGGACGTGCTAG; value = 2.95 z-score
Sequence = TCAGGCTTAGTTTGTCAAACTGTGCTA; value = -0.386 z-score
Sequence = GACGGTTCCGGTTTCTGGACGTGCTAG; value = 5.99 z-score
Sequence = TTAGTTTTCGGGTATCGGTTAGTGCTA; value = 3.4 z-score
Sequence = GACGGTATCGGGTATCGGGATGTGCTA; value = 0.504 z-score
Sequence = TCATATTCAGGTATATAACTGTGCTAG; value = 1.02 z-score
Sequence = GCCTTTTTTTTTTTTTCTGAGTGCTAG; value = 1.37 z-score
Sequence = ATAGGTATCGGGACTGGGTTAGTGCTA; value = 0.0143 z-score
Sequence = TTAGGTTCCCTTATCCTTTAGTGCTAG; value = 1.39 z-score
Sequence = TTAGGTTTCGGGTATCGGTTTGTGCTA; value = 8.89 z-score
Sequence = TCAACTTCTCTTTTGGCACTGTGCTAG; value = 0.515 z-score
Sequence = GACGGTTTCCTTTCACTGACGTGCTAG; value = 7.04 z-score
Sequence = GACGATTTCGGGTATAGAGACGTGCTA; value = 0.544 z-score
Sequence = TTAGGTCTCGGTTACGGTTAGTGCTAG; value = 2.71 z-score
Sequence = TTAGGACTGGGGACTGTGTTAGTGCTA; value = -0.639 z-score
Sequence = TTAGATAGCGGGTATCGATTAGTGCTA; value = 0.0554 z-score
Sequence = TCAGCTCTGATGTTGGGACTGTGCTAG; value = -0.485 z-score
Sequence = CTTTACTTCACTCTCTGCTTGTGCTAG; value = 0.583 z-score
Sequence = ATAGGACTGGGGTTTCGGTTAGTGCTA; value = 5.22 z-score
Sequence = TTAGGTGCCGGTTTCGGTTAGTGCTAG; value = 7.18 z-score
Sequence = GACGGTTTAGGTCTCGGGACGTGCTAG; value = 0.42 z-score
Sequence = GACGATTCCATTTTCGAGACGTGCTAG; value = 1.55 z-score

Study 5
Target: CCNE1, cyclin fold, Cln2 fusion (human)
Method: yeast growth competition, sequencing
Medium: yeast
Notes: weak parent motif
Relative to: not given
Direction: higher = stronger binding
Measurement: normalised enrichment score
Parent: RP1L1 docking peptide (human); TLGLGPLSFTLED
Substitution = TLGLAPLSFTLED [G5A]; value = 0.619
Substitution = TLGLGPLAFTLED [S8A]; value = 0.367
Substitution = TLGLGPLSFTLEA [D13A]; value = 0.385
Substitution = TLGLGPLSFALED [T10A]; value = 0.402
Substitution = TLGLGPLSATLED [F9A]; value = 0.107
Substitution = TLGLGPLSFTAED [L11A]; value = 0.0767
Substitution = TLGAGPLSFTLED [L4A]; value = 0.376

Study 6
Target: RNA binding protein fox-1 homolog 2, RRM domain, GST-SBP tag (RBFOX2, Homo sapiens, UniProt O43251-10, residues 100-194)
Method: RNA Bind-n-Seq
Form: RNA
Medium: in vitro
Tested at: 365 nM
Notes: natural RNA segment, single round, ends assumed
Relative to: no-protein control
Direction: higher = stronger binding
Measurement: RBNS enrichment (R)
Constant ends, left off below: GGGAGUUCUACAGUCCGACGAUC … UGGAAUUCUCGGGUGCCAA
Residues (chain): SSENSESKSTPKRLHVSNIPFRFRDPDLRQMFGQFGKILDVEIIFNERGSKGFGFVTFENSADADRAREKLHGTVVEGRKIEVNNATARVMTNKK
Sequence = UUUGUGCCAUUUACAAGUGGAAAUAAAUUUUAUUAUACCAUGAUCUACUGGCGUUUUAAAACUGUUAAAUGUGCACAUUUUGGGUAUAGCUAUUUUCACUUGUAUGUAUA; value = 0.733
Sequence = AAGCAGAACUCCAUCCUCACCUCUAUUUUGAGCUUAGUGCUUUAUUUCAGUAUGAGGAAAAACAACAACAAACCGAAGUGUGCUUUCCGUCCUUUCAGAGGACAACUGUC; value = 0.31
Sequence = GACAUGAAAUCCAGGCUGAGUUGGUCUCAGAUAGCGAUGAGGAACUUGUUUGGUACUGGAGUAAAGGUGACUCUUGCUAUAUUUUAGCAAAGAGACUGGCUGCAUUUUGC; value = 1.03
Sequence = CUGAAAUUAUUCUGAAACACUUCUUGUCACAAGAAUUUCAGCAAAGUACAGUCAACCUAUCAGAGAGACAAGGGUGAUGCCCCGGUGAGUGUGUCUCAGCUGUGUUUAUG; value = 0.653
Sequence = UCCUCUCUCCUCCUCCUGGCUUUUGGAAAGGCUUGGCUGUGUUGGGGAGUCUCUCUUAGCCCUUUCAGGAAUUUCUGUUCAGGCUUCCUCCUCCUCAUCAGCUAUUUUAC; value = 0.474
Sequence = GGAUUCUGGCUUCAAGGCUGGACACCUGAACUAUUUACAAAGACAGUUUUAAGAAUAUGAAAUUAAGUUCAGGGCCCCGGAAGCUUCUUGAGCGACAUAGCCAGUCCGCC; value = 0.258
Sequence = ACAAAAUAGAUUUUAAGGCUAACUUCUUUUCACUGUUGUGCUCCUUUGCAAAAUGUAUGUUACAAUAGAUAGUGUCAUGUUGCAGGUUCAACGUUAUUUACAUGUAAAUA; value = 0.535
Sequence = CCAUGGUACAGACUGUUCCAGAUCACCAAGAAAGGUACUUUCAGGAUCCCAGUGCCUAGCACUGGGUAAGCUACCCCAGACAACUAGCCUUCCUUAUACCCAAACGCUGG; value = 0.307
Sequence = UAUAAGCACAAAUGUAUGUAAAGUGCCUGGCACAAAGUAGGUGCUCAAUAAAUGGUAGCUAUUAUAAACUAUUUCUUGUUUUAUUGAUUAAAAACAAGGAUCCUUCUAGA; value = 1.31
Sequence = UUAACAUAAAGACCAUUCAUCAGCGAAUAACUACUGAGCAACUCUAGUGUGCCAGCACAGGCCAGACAUACUAGUGAGCCAGGCACAUCUGGCCUUGGGAAACUCAUCCU; value = 0.237
Sequence = CAGUUAAGUUCCACCCAGUAGUCAGUCCCCUUUGUAGUUAGUGGGAUUAUUUGAUAAUUGGUUAGAUCAUACUUGUAAAUUUUAAUGCUUUGUGUAAUUGGUUUGAAAAA; value = 0.417
Sequence = ACAAUUUUUUAAUGUGUUCUGUGGCCGUUUUACUGACAGUAACUGCCAUUUCGUGUCUGUGGUAACAAAGUGACUUGUAAAAUGGUGGAUGUUUCCCUCACUGUGUUCUC; value = 0.521

A few entries again (study 2):
Substitution = I52L; value = 4.92 µM
Substitution = E151K; value = 3.32 µM
Substitution = N77W; value = 4.03 µM
Substitution = I12M; value = 15.5 µM
Substitution = E139C; value = 2.44 µM
Substitution = P146F; value = 428 µM
Substitution = K126V; value = 1.43 µM
Substitution = S150D; value = 5.38 µM
Substitution = K168I; value = 22.7 µM
